Measurements from different studies.
Compare with care: the assays were run in different laboratories.

Cc1cc2ncc(C(=O)NCC(C)(C)NCC(=O)N3CCC[C@H]3C#N)cn2n1
inhibition (Replicase polyprotein 1ab, main protease (rep, Severe acute respiratory syndrome coronavirus 2, UniProt P0DTD1); reporter gene (mKate2), inhibitor; 20 µM): -0.172%

SLQSCTQHQPYVVDD
responding donors (human CD4 T cells; AIM; peptide): 9%

Nc1ncnc2c([C@@H]3N[C@H](CO)[C@@H](O)[C@H]3O)c[nH]c12
infected cells (Marburg virus; viral replication, antibody staining; HeLa, Musoke; 0.4 µM, 1 h): 9.4%

YYQLYSTQL
frequency of responding donors (AIM; peptide, CD8+ T cells from PBMC, human donors; baseline: positive over tested donors): 50%

CC[C@H](C)[C@H](NC(=O)[C@H](CC(C)C)NC(=O)[C@H](Cc1c[nH]c2ccccc12)NC(=O)[C@H](CCC(N)=O)NC(=O)[C@@H](NC(=O)[C@H](Cc1ccccc1)NC(=O)[C@H](C)NC(=O)[C@H](CCCCNC(=O)COCCOCCNC(=O)COCCOCCNC(=O)CC[C@H](NC(=O)CCCCCCCCCCCCCCCCCCC(=O)O)C(=O)O)NC(=O)[C@H](CCC(N)=O)NC(=O)[C@H](C)NC(=O)[C@@H](NC(=O)[C@H](CCCCN)NC(=O)[C@H](CC(=O)O)NC(=O)[C@H](CC(C)C)NC(=O)C(C)(C)NC(=O)[C@@H](NC(=O)[C@H](CO)NC(=O)[C@H](Cc1ccc(O)cc1)NC(=O)[C@H](CC(=O)O)NC(=O)[C@H](CO)NC(=O)[C@@H](NC(=O)[C@H](Cc1ccccc1)NC(=O)[C@@H](NC(=O)CNC(=O)[C@H](CCC(=O)O)NC(=O)C(C)(C)NC(=O)[C@@H](N)Cc1ccc(O)cc1)[C@@H](C)O)[C@@H](C)O)[C@@H](C)CC)[C@@H](C)CC)C(C)C)C(=O)N[C@@H](C)C(=O)NCC(=O)NCC(=O)N1CCC[C@H]1C(=O)N[C@@H](CO)C(=O)N[C@@H](CO)C(=O)NCC(=O)N[C@@H](C)C(=O)N1CCC[C@H]1C(=O)N1CCC[C@H]1C(=O)N1CCC[C@H]1C(=O)N[C@@H](CO)C(N)=O
Cmax (human type 2 diabetes patients, plasma; subcutaneous, 5/5/10/15 mg once weekly, day 1): 286 ng/mL

For quick reference, copied from above:
YYQLYSTQL
frequency of responding donors (AIM; peptide, CD8+ T cells from PBMC, human donors; baseline: positive over tested donors): 50%
